Experimental data pooled from the literature.
Every numbered part comes from another study and shows a few of its results, in no order.

Series 1 — method: Sort-seq; item: YFP reporter; sample: E. coli; notes: PhoQ-PhoP variant library; together with: 10 µM Mg2+; reference: high Mg2+ state; direction: higher = stronger signaling
Substance: PhoQ, residues 284 288 289 292 302 303 TTSMTC
target	fold induction
PhoP, residues 12 14 15 18 19 TQAML (Escherichia coli, UniProt P23836)	14.1
PhoP, residues 12 14 15 18 19 NQCAL (Escherichia coli, UniProt P23836)	18.4
PhoP, residues 12 14 15 18 19 LHTVL (Escherichia coli, UniProt P23836)	16.9

Other studies, line by line — sample: in vitro; direction: higher = stronger binding
IRF5 S451D/S453D/S456D/S462D full length, phosphomimetic: Interferon regulatory factor 5, full length, phosphomimetic (IRF5, Homo sapiens, UniProt Q13568-2, residues 1-514, S451D/S453D/S456D/S462D)
Sequence	target	test	test system	setting	scale	quantity	value
GCCTAGCACGACGGTTTCGACTTTTGGGACGTGCTAGTCTTGATTCGCTTGACGCTGCTG	IRF5 S451D/S453D/S456D/S462D full length, phosphomimetic	protein-binding microarray	double-stranded DNA, one strand shown	940 nM top, 60-bp whole probe, together with: salmon DNA 0.4 mg/ml	reference: random background probes	fitted relative affinity	6.69 z-score
GGGAGUUCUACAGUCCGACGAUCAAAAAAAUUCAAGUUUUGUUCUUAGGAUGUCCAAUAGAAGAUAACUGUGGAUGAUAACUAAUUCUAAUUGUUGAAGGGGGAAAAAAACCCAAACCUUGGCCUUUCUGCAAUGGAAUUCUCGGGUGCCAA	RNA binding protein fox-1 homolog 2, RRM domain, GST-SBP tag (RBFOX2, Homo sapiens, UniProt O43251-10, residues 100-194)	RNA Bind-n-Seq	RNA	365 nM, natural RNA segment, single round, ends assumed	reference: no-protein control	RBNS enrichment (R)	0.796
GCCTAGCACTTGGGTTTCGGTTCCGGTTAGTGCTAGGTCTTGATTCGCTTGACGCTGCTG	IRF5 S451D/S453D/S456D/S462D full length, phosphomimetic	protein-binding microarray	double-stranded DNA, one strand shown	940 nM top, 60-bp whole probe, together with: salmon DNA 0.4 mg/ml	reference: random background probes	fitted relative affinity	12.8 z-score
GACTCGGA	Histone acetyltransferase KAT6A, both winged helices, GST fusion (KAT6A, Homo sapiens, UniProt Q92794, residues 1-181)	protein binding microarray	double-stranded DNA, one strand shown	not given, 8-mer, flanks averaged, mean of 2 arrays, mostly near background	reference: not given	E-score	0.0524
GCCTAGCACGACGGACTGCTTATCCCGACGTGCTAGGTCTTGATTCGCTTGACGCTGCTG	IRF5 S451D/S453D/S456D/S462D full length, phosphomimetic	protein-binding microarray	double-stranded DNA, one strand shown	940 nM top, 60-bp whole probe, together with: salmon DNA 0.4 mg/ml	reference: random background probes	fitted relative affinity	-0.23 z-score
CCAAAGCC	Histone acetyltransferase KAT6A, winged helix 1, GST fusion (KAT6A, Homo sapiens, UniProt Q92794, residues 1-85)	protein binding microarray	double-stranded DNA, one strand shown	not given, 8-mer, flanks averaged, mean of 2 arrays, mostly near background	reference: not given	E-score	0.00734

Excerpt of the above (series 1):
target	fold induction
PhoP, residues 12 14 15 18 19 LHTVL (Escherichia coli, UniProt P23836)	16.9
